Results from different studies.
Each numbered part is a random draw from the data of one study; scales do not carry over between parts.
Sequence of UniProt O60285 (whole entry, looked up): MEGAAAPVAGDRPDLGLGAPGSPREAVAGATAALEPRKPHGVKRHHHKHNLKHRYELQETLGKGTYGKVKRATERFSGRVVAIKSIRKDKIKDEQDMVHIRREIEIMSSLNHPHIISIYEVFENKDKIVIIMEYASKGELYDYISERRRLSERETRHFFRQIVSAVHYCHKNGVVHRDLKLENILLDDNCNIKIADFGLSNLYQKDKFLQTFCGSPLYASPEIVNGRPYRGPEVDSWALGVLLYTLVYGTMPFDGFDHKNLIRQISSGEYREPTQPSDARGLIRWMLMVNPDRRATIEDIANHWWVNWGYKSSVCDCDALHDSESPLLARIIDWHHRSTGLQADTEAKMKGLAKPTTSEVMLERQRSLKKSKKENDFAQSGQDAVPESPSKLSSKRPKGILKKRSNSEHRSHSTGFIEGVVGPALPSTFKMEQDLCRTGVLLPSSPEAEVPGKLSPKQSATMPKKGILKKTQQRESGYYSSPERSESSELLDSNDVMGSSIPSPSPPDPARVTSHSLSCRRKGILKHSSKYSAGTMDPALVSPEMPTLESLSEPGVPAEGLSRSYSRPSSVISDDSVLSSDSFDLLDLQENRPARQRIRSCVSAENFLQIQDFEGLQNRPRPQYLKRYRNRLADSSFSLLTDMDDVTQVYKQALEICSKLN

Study 1 — technique: RNA Bind-n-Seq; form: RNA; sample: in vitro; concentration: 365 nM; reference: no-protein control; direction: higher = stronger binding
Target: RNA binding protein fox-1 homolog 2, RRM domain, GST-SBP tag (RBFOX2, Homo sapiens, UniProt O43251-10, residues 100-194)
Setting: natural RNA segment, single round, ends assumed
Constant ends, left off below: GGGAGUUCUACAGUCCGACGAUC … UGGAAUUCUCGGGUGCCAA
Target sequence (chain): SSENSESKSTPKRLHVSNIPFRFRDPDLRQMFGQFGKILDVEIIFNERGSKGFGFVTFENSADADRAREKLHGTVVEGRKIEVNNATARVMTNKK
Strand | RBNS enrichment (R)
GUUCUCUCCAGUACCUUAAAUGGUGUUCACCGCUCUGAAGAAGCAUCUCUAUACAGGCAGUUAUUUUAUUUUUAGACUGUGUUAGAAUGUCUGGACUUAGCUUCAAACUC | 0.357
UCCAGGAGACUUUGCCUUGAGGGUGCCACAGGUGGAGAGAUAAAGAUAGCUUUUGAAGCUUGAACACAUGCCAGUGAGAUGAAAGUUGGCCUUAGCAACUGCCCAGGUCC | 0.585
GUGGGCUGUGCGUGGGUUCACCUGGGGCCUGCUUUUCAGAAGGCAAAGAUAAGCCCGCCAUGCUGGGCUGGGGAACUCUGAAGAAGACCAGCAACGAGUACCUUCUCCCG | 0.357
UCUAAGAGUUGAUUGCUGUAUAUUAAAAUUGAACAUCAGAGGAUGGGAAGAGGGCUCUGUAAGCCAGAACCUUACUAAAGUAGAGGGCACAAUCAGUGUGAAUAAAUUCA | 0.81
UGCAUACCUGUUUAGAACCAAAACCACCAUGACACAGUUUUUAUAGUGUCUGUAUAUUUGUGAUGCAAUGGUCUUGUAAAGGUUUUUAAUGAAAACUACCAUUAGCCAGU | 1.31
GGAGUUUCAACACCCCUGCUGUCCCUUUAACUUGUAUUGUCCUAGACCCUGUCCUGGAAGUUAGAGGACGUGGGGUAUUUUUUUUUUUGAUCUCUUGCCAGUUGUGAAUA | 0.606
GAGUGUUCUAGUCUGAUGUAUGUGGGGUUUCCUGCCCUGUUGGACCAAAGUUUCCAUGGUCCUAUGGGAUAGCCUUCAGCCUCUGGAGACCCAGAGCUUGCCUGCCAGGG | 0.584
AUAUUUUGGAGUCUUGAGAUUGUUUUUCUCUUUUCUUAUUAAAUAAUCUUUCUAUAAACCAGCACUACAGAGUUUGCUGUGUAUGUUUUCUCCAGGUUAUAAUGUAGGCA | 0.651

Study 2 — technique: Spec-seq; form: double-stranded DNA, one strand shown; sample: in vitro; concentration: not given; setting: whole probe, mean of replicates; reference: not given; direction: lower = stronger binding; constant ends, left off below: GAGTCGTCTCGTCAGCAC … CCGTAGAGCACTCAGGTC
Target: POU domain, class 5, transcription factor 1, POU domain (Pou5f1, Mus musculus, UniProt P20263, residues 131-289)
Sequence of UniProt P20263 (131-289, looked up): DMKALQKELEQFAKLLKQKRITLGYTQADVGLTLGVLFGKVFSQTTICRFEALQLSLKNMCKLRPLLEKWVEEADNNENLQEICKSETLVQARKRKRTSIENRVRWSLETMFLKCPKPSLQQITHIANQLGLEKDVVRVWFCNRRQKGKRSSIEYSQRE
Strand | relative binding energy
ATGCTGGA | 0.576 ln ratio
GCTTTAAT | 0.541 ln ratio
ATGTTGAT | -0.527 ln ratio
ATCCTAAT | 0.391 ln ratio
ATGCTTCT | 0.486 ln ratio
ATGTCCAT | 0.383 ln ratio
ATGCTTTA | 0.578 ln ratio
TGGTTAAT | 0.579 ln ratio

Study 3 — technique: universal PBM; form: double-stranded DNA, one strand shown; sample: in vitro; concentration: not given; direction: higher = stronger binding
Target: Sal-like protein 4, full length isoform B (SALL4, Homo sapiens, UniProt Q9UJQ4-2, residues 1-616)
Setting: 8-mer, flanks averaged, mean of replicates
Strand | E-score
CGGGACTA | -0.135
AAGGCGGC | -0.171
ATAGCTGC | 0.129
GCCCGATA | -0.0645
CCCTAGTA | 0.0227
ACTACTAG | 0.0803
ACCCCGTA | 0.0101
TGACTAAA | 0.0621

Further values, each from its own experiment
SMILES | target | effect on | mode | concentration | reference | quantity | result
COc1ccc(-c2cnc3c(-c4ccsc4)cnn3c2)cc1 | NUAK family SNF1-like kinase 1 (NUAK1, Homo sapiens, UniProt O60285) | enzyme activity | inhibitor | 0.5 µM | control | remaining activity | 77.9%

Repeated from above (study 1):
Strand | RBNS enrichment (R)
UCCAGGAGACUUUGCCUUGAGGGUGCCACAGGUGGAGAGAUAAAGAUAGCUUUUGAAGCUUGAACACAUGCCAGUGAGAUGAAAGUUGGCCUUAGCAACUGCCCAGGUCC | 0.585
GUGGGCUGUGCGUGGGUUCACCUGGGGCCUGCUUUUCAGAAGGCAAAGAUAAGCCCGCCAUGCUGGGCUGGGGAACUCUGAAGAAGACCAGCAACGAGUACCUUCUCCCG | 0.357
UCUAAGAGUUGAUUGCUGUAUAUUAAAAUUGAACAUCAGAGGAUGGGAAGAGGGCUCUGUAAGCCAGAACCUUACUAAAGUAGAGGGCACAAUCAGUGUGAAUAAAUUCA | 0.81
